Results pooled from the literature.
Protocols differ between the studies behind these lines. ± gives the spread as reported.

C[C@@H](O)[C@@H](CO)NC(=O)[C@@H](CCCNC(=N)N)NC(=O)[C@@H]1CCCN1C(=O)[C@@H]1CSSC[C@H](NC(=O)[C@H](Cc2ccccc2)NC(=O)CN2CCN(CC(=O)O)CCN(CC(=O)O)CCN(CC(=O)O)CC2)C(=O)N[C@@H](Cc2ccc(O)cc2)C(=O)N[C@@H](Cc2ccccc2)C(=O)N[C@@H](CCC(N)=O)C(=O)N[C@@H](CC(N)=O)C(=O)N1 [gallium-68 labelled]  tissue uptake (Wistar rat, thyroid; intravenous, 8 MBq, 120 min, group mean): 0.02 %ID/g
CCCCCCCCCCCCCCCC(=O)OCC(CSC[C@H](N)C(=O)N[C@@H](CO)C(=O)N[C@@H](CCCCN)C(=O)N[C@@H](CCCCN)C(=O)N[C@@H](CCCCN)C(=O)N[C@@H](CCCCN)C(=O)Nc1ccc(Cn2c(O)nc3c(N)nc(NCCCC)nc32)cc1)OC(=O)CCCCCCCCCCCCCCC (some centres unmarked)  viability (HFF-1; 10 µg/mL, 48 h): 107%
CC(C)C[C@@H]1NC(=O)[C@H](CC(C)C)NC(=O)[C@H](Cc2c[nH]c3ccccc23)NC(=O)[C@H](CO)NC(=O)[C@H](Cc2c[nH]c3ccccc23)NC(=O)[C@@H]2CCCN2C(=O)[C@H](CC(C)C)NC(=O)[C@H](Cc2c[nH]cn2)NC(=O)[C@@H]2CCCN2C(=O)[C@H](CC(N)=O)NC(=O)[C@H](C)NC(=O)[C@H](Cc2ccc(O)cc2)NC(=O)[C@H](CS)NC(=O)[C@H](CCCCNC(=O)CN2CCN(CC(=O)O)CCN(CC(=O)O)CCN(CC(=O)O)CC2)NC1=O [lutetium-177 labelled]  tumour uptake (BALB/c mice female 4T1 tumour, 4T1 tumour; intravenous, 3.7 MBq, 24 h, unblocked): 5.74 ± 1 %ID
O=C(O)C[C@H](NC(=O)[C@H](CC(=O)O)NC(=O)[C@H](CC(=O)O)NC(=O)[C@H](CC(=O)O)NC(=O)[C@H](CC(=O)O)NC(=O)[C@H](CC(=O)O)NC(=O)[C@H](CC(=O)O)NC(=O)[C@H](CC(=O)O)NC(=O)[C@H](CC(=O)O)NC(=O)[C@H](CC(=O)O)NC(=O)[C@H](CC(=O)O)NC(=O)[C@H](CCCCNC(=O)c1ccc(C(=O)NCCOCCOB2BBBBBB3BBBB3B2)cc1)NC(=O)CN1CCN(CC(=O)O)CCN(CC(=O)O)CCN(CC(=O)O)CC1)C(=O)O [gallium-67 labelled]  tissue uptake (gamma counting; mouse, ddY, male, 6 weeks old, femur; intravenous, 37 kBq, 1 h): 9.63 %ID/g
CC[C@H](C)[C@H](NC(=O)[C@H](Cc1ccccc1)NC(=O)[C@H](CCC(=O)O)NC(=O)[C@H](CCCNC(=N)N)NC(=O)[C@H](C)NC(=O)[C@H](C)NC(=O)[C@H](CCC(N)=O)NC(=O)[C@H](CCC(=O)O)NC(=O)[C@H](CCC(=O)O)NC(=O)[C@H](CC(C)C)NC(=O)[C@H](Cc1ccc(O)cc1)NC(=O)[C@H](CO)NC(=O)[C@H](CO)NC(=O)[C@@H](NC(=O)[C@H](CC(=O)O)NC(=O)[C@H](CO)NC(=O)[C@@H](NC(=O)[C@H](Cc1ccccc1)NC(=O)[C@@H](NC(=O)CNC(=O)[C@H](CCC(=O)O)NC(=O)[C@H](C)NC(=O)CCc1c[nH]cn1)[C@@H](C)O)[C@@H](C)O)C(C)C)C(=O)N[C@@H](C)C(=O)N[C@@H](Cc1c[nH]c2ccccc12)C(=O)N[C@@H](CC(C)C)C(=O)N[C@H](C(=O)N[C@@H](CCCNC(=N)N)C(=O)NCC(=O)N[C@@H](CCCNC(=N)N)C(=O)N[C@@H](CCCCNC(=O)COCCOCCNC(=O)COCCOCCNC(=O)CC[C@H](NC(=O)CCCCCCCCCCCCCCCCC(=O)O)C(=O)O)C(=O)NCC(=O)NCC(=O)N[C@@H](CO)C(=O)N[C@@H](CCCCNc1c(NCCCCCN(O)C(=O)CCC(=O)NCCCCCN(O)C(=O)CCC(=O)NCCCCCN(O)C(C)=O)c(=O)c1=O)C(=O)O)C(C)C [zirconium-89 labelled]  tissue uptake (gamma counting; rat, skin at injection site; intravenous, 3 nmol/kg, 24 h): 0.16 %ID/g
N=C(N)NCCC[C@@H]1NC(=O)[C@H](CCCCNC(=O)c2ccc(CNC34CNCCNCC(N)(CNCCNC3)CNCCNC4)cc2)NC(=O)[C@@H](Cc2ccc(O)cc2)NC(=O)[C@H](CC(=O)O)NC(=O)CNC1=O [copper-64 labelled]  tissue uptake (ex vivo biodistribution; male athymic nude mouse, PC-3 tumour, kidneys; 7.4 MBq, 48 h): 1.7 ± 0.19 %ID/g
Cc1ccccc1NC(=O)Nc1ccc(CC(=O)N[C@@H](CCCCNC(=O)/C=C/c2cccnc2)C(=O)N[C@@H](CCCC(=O)O)C(=O)NC2(C(=O)NCCOCCOCCOCCOCC(=O)N[C@@H](CCCCNC(=S)Nc3ccc(CCCN(CCN4CCN(CP(=O)(O)O)CCN(CP(=O)(O)O)CC4)CC(=O)O)cc3)C(N)=O)CCCCC2)cc1 [gallium-68 labelled]  tissue uptake (mouse, kidney; intravenous, 2 h post-injection): 11.1 ± 2.7 %ID/g
CC(C)[C@@H]1NC(=O)[C@H](Cc2ccccc2)NC(=O)[C@@H]2NC(=O)[C@H](Cc3ccccc3)NC(=O)[C@@H]3CCCN3C(=O)CNC(=O)[C@H](Cc3ccccc3)NC(=O)[C@@H]3CNCCCC[C@@H](C(=O)O)NC(=O)[C@@H]4NC(=O)[C@H](CC(N)=O)NC(=O)CNC(=O)[C@H]([C@@H](O)C(=O)O)NC(=O)[C@H](CSC[C@@H](NC(=O)[C@H](CCC(N)=O)NC(=O)[C@H](CCCCNC(=O)c5ccc(NN)nc5)NC(=O)[C@@H](N)CS[C@H]4C)C(=O)N[C@@H](CS[C@H]2C)C(=O)N3)NC1=O [technetium-99m labelled]  tissue uptake (rat, saline control, lung; intravenous, 2 h after tracer, tracer 2 h after reperfusion): 0.25 ± 0.04 %ID/g

A few entries again:
CC[C@H](C)[C@H](NC(=O)[C@H](Cc1ccccc1)NC(=O)[C@H](CCC(=O)O)NC(=O)[C@H](CCCNC(=N)N)NC(=O)[C@H](C)NC(=O)[C@H](C)NC(=O)[C@H](CCC(N)=O)NC(=O)[C@H](CCC(=O)O)NC(=O)[C@H](CCC(=O)O)NC(=O)[C@H](CC(C)C)NC(=O)[C@H](Cc1ccc(O)cc1)NC(=O)[C@H](CO)NC(=O)[C@H](CO)NC(=O)[C@@H](NC(=O)[C@H](CC(=O)O)NC(=O)[C@H](CO)NC(=O)[C@@H](NC(=O)[C@H](Cc1ccccc1)NC(=O)[C@@H](NC(=O)CNC(=O)[C@H](CCC(=O)O)NC(=O)[C@H](C)NC(=O)CCc1c[nH]cn1)[C@@H](C)O)[C@@H](C)O)C(C)C)C(=O)N[C@@H](C)C(=O)N[C@@H](Cc1c[nH]c2ccccc12)C(=O)N[C@@H](CC(C)C)C(=O)N[C@H](C(=O)N[C@@H](CCCNC(=N)N)C(=O)NCC(=O)N[C@@H](CCCNC(=N)N)C(=O)N[C@@H](CCCCNC(=O)COCCOCCNC(=O)COCCOCCNC(=O)CC[C@H](NC(=O)CCCCCCCCCCCCCCCCC(=O)O)C(=O)O)C(=O)NCC(=O)NCC(=O)N[C@@H](CO)C(=O)N[C@@H](CCCCNc1c(NCCCCCN(O)C(=O)CCC(=O)NCCCCCN(O)C(=O)CCC(=O)NCCCCCN(O)C(C)=O)c(=O)c1=O)C(=O)O)C(C)C [zirconium-89 labelled]  tissue uptake (gamma counting; rat, skin at injection site; intravenous, 3 nmol/kg, 24 h): 0.16 %ID/g
